Experimental data pooled from the literature.
Numbers after ± are the reported error.
Organism: Escherichia coli

Structure (SMILES)	assay	test system	conditions	scale	MIC
COc1ccc2ccc3c(c2c1)C=[N+]1C2CCCCC2[N+]2=Cc4cccc(F)c4[O][Au-]21[O]3.F[P-](F)(F)(F)(F)F (centres unmarked)	bacterial growth, broth microdilution	carbapenem-resistant clinical isolate	24 h		20 µM
CCCCCCCCCC(=O)NCCCC[C@@H](NC(=O)[C@@H](CC(C)C)NC(=O)[C@@H](CCCCN)NC(=O)[C@@H](CCCCNC(=O)[C@@H](CC(C)C)NC(=O)[C@@H](CCN)NC(=O)[C@@H](CCCCNC(=O)[C@@H](Cc1ccccc1)NC(=O)[C@H](N)CCCN)NC(=O)[C@@H](Cc1ccccc1)NC(=O)[C@H](N)CCCN)NC(=O)[C@@H](CC(C)C)NC(=O)[C@@H](CCN)NC(=O)[C@@H](CCCCNC(=O)[C@@H](Cc1ccccc1)NC(=O)[C@H](N)CCCN)NC(=O)[C@@H](Cc1ccccc1)NC(=O)[C@H](N)CCCN)C(N)=O	broth microdilution	W3110	37 °C		4 µg/mL
CCn1cc(/C=C/c2sc3ccccc3[n+]2CC)c2ccccc21		780, Mueller-Hinton broth			16 ± 0.001 µg/mL
COc1ccc2c(oc3c4ccc(O)cc4oc(=O)c23)c1CC=C(C)C		TISTR 780			128 µg/mL
O=C(NCCNCCO)c1cn(Cc2cccc(Br)c2)c2cc(Cl)c(OCc3ccc(C(F)(F)F)cc3)cc2c1=O		ATCC 25922		≥80% growth inhibition	< 0.25 µg/mL
CC1=C[C@@H](C)[C@H]2[C@@H]3C(=O)C(Cl)(Cl)C(=O)[C@H](C)C(=O)O[C@@H](C)/C=C/C=C\[C@@H](C)[C@@H]3C=C[C@@H]2C1		K12 ΔtolC	24 h		> 3.2 µg/mL
COc1ccc2c(c1CC=C(C)C)O[C@H]1c3cc(CC=C(C)C)c(O)cc3OC[C@@H]21		TISTR 780			128 µg/mL
CC1OCC2OC(OC3C(N)CC(N)C(O)C3OC3OC(CO)C(OC4OC(CN)C(O)C(O)C4N)C3O)C(N)C(O)C2O1 (centres unmarked)	broth microdilution	clinical isolate AG 055			64 µg/mL
CCCCCCCCCCN1C(=O)/C(=N\NC(=N)N)c2cc(C)ccc21	microbial growth, broth dilution		18 h		24 µg/mL
CN1CCC(NCCC2(Cc3ccc(Cl)cc3)CCCCC2)CC1		uropathogenic	10 h		100 µM
CCCCCCCCCc1nc2cc(Cl)ccc2c(=O)n1CCN		MG1655			inactive
NC[C@@H]1O[C@H](O[C@H]2[C@@H](O)[C@H](O[C@@H]3[C@@H](O)[C@H](N)C[C@H](N)[C@H]3O[C@H]3O[C@H](CO)[C@@H](OCCO)[C@H](O)[C@H]3N)O[C@@H]2CO)[C@H](N)[C@@H](O)[C@@H]1O	broth microdilution	clinical isolate AG 001			32 to 64 µg/mL
CC(C)C1=CC2=CCC3C(C)(C(=O)OCCC[N+](C)(C)C)CCCC3(C)C2CC1 (centres unmarked)	microbial growth, broth dilution	ATCC25922	16 h		15.6 µg/mL
COc1ccc2ccc3c(c2c1)C=[N+]1C2CCCCC2[N+]2=Cc4ccccc4[O][Au-]21[O]3.F[P-](F)(F)(F)(F)F (centres unmarked)	bacterial growth, broth microdilution	carbapenem-resistant clinical isolate	24 h		> 20 µM
CCN(CC)CCCN1/C(=C/c2cc[n+](C)c3ccccc23)Sc2ccccc21	microbial growth, broth dilution	ATCC25922			2 µg/mL
Cc1cc2[nH]c(C(=O)Nc3ccccc3C)c(CN3CCOCC3)c2s1		ATCC 25922, LB broth	20 h		> 200 µM
CC[C@H](C)[C@H](N)C1=N[C@H](C(=O)N[C@@H](CC(C)C)C(=O)N[C@H](CCC(=O)O)C(=O)N[C@H](C(=O)N[C@H]2CCCCNC(=O)[C@H](CC(N)=O)NC(=O)[C@@H](CC(=O)O)NC(=O)[C@H](Cc3c[nH]cn3)NC(=O)[C@@H](Cc3ccccc3)NC(=O)[C@H]([C@@H](C)CC)NC(=O)[C@@H](CCCN)NC2=O)[C@@H](C)CC)CS1	broth microdilution	ATCC 25922, LB medium	18 h, 37 °C, added: ZnSO4 0.3 mM		> 64 µg/mL
CC(=O)N1CCc2cc(S(=O)(=O)N3CCN(c4cc(C(F)(F)F)ccn4)CC3)ccc21	microbial growth, broth dilution	25922	22 h		> 64 µg/mL
CC1(C)S[C@@H]2[C@H](NC(=O)[C@H](N)c3ccccc3)C(=O)N2[C@H]1C(=O)O					3.12 µM

Structure (SMILES)	assay	test system	conditions	scale	MIC
CCn1[c]([Au-]([Cl])([Cl])[Cl])[n+](CC)c2ccc(C(=O)OC)cc21	broth dilution	DSM 1116	20 h, 37 °C		34.9 ± 8.6 µM
COc1ccc2c(c1)C=[N+]1C3CCCCC3[N+]3=Cc4c(ccc5ccc(OC)cc45)[O][Au-]13[O]2.F[P-](F)(F)(F)(F)F (centres unmarked)	bacterial growth, broth microdilution	carbapenem-resistant clinical isolate	24 h		> 20 µM
COC1COC(=O)N1/N=C/c1ccc([N+](=O)[O-])o1 (centres unmarked)	microbial growth, broth dilution	ATCC25922	18 h		> 50 µg/mL
NCC1OC(OC2C(N)CC(N)C(OC3OC(CO)C(O)C(N)C3O)C2OCCCCn2cc(CNc3nc(NCc4cn(CCCCOC5C(OC6OC(CN)C(O)CC6N)C(N)CC(N)C5OC5OC(CO)C(O)C(N)C5O)nn4)nc(NCc4cn(CCCCOC5C(OC6OC(CN)C(O)CC6N)C(N)CC(N)C5OC5OC(CO)C(O)C(N)C5O)nn4)n3)nn2)C(N)CC1O (centres unmarked)	microbial growth, broth dilution	ATCC25922			> 128 µg/mL
COc1ccc2ccc3c(c2c1)C=[N+]1C2CCCCC2[N+]2=Cc4cc(C(C)(C)C)ccc4[O][Au-]21[O]3.F[P-](F)(F)(F)(F)F (centres unmarked)	bacterial growth, broth microdilution	carbapenem-resistant	24 h		> 20 µM
CCCCc1ccc(N2C(=O)/C(=N\NC(=N)N)c3ccccc32)cc1	microbial growth, broth dilution		18 h		12 µg/mL
C/C(=N\Nc1nc(-c2ccccc2)cs1)c1ccc2c(c1)sc1nc(=O)c(C#N)cn12	microbial growth, broth dilution				< 36 µg/mL
COCO[C@H]1[C@H](O)[C@@H](N)[C@@H](O[C@H]2[C@H](O[C@@H]3O[C@H](CO)[C@@H](O[C@H]4O[C@@H](CN)[C@@H](O)[C@H](O)[C@H]4N)[C@H]3O)[C@@H](O)[C@H](N)C[C@@H]2N)O[C@@H]1CO	broth microdilution	clinical isolate AG 055			64 to 128 µg/mL
CCCCN(CCCC)CC(O)COc1c2ccoc2c(OC)c2oc(CC)cc(=O)c12 (centres unmarked)	microbial growth, broth dilution	ATCC25	19 h		> 256 µg/mL
Cc1ccc(NC(=O)C2C(=O)C(c3ccccc3)c3ccc4c(c32)C(=O)c2ccccc2C4=O)cc1 (centres unmarked)	microbial growth				> 100 µg/mL
O=C(NCCNCCO)c1cn(Cc2ccc(F)cc2)c2cc(Cl)c(OCc3ccc(C(F)(F)F)cc3)cc2c1=O		ATCC 25922		≥80% growth inhibition	< 0.25 µg/mL
CCCSC1COC(=O)N1/N=C/c1ccc([N+](=O)[O-])o1 (centres unmarked)	microbial growth, broth dilution	ATCC25922	18 h		> 50 µg/mL
C=CCOC(=O)c1ccc(NC(=O)c2ccc(NC(=O)c3ccc(NC(=O)C(CC(N)=O)NC(=O)c4ccc(NC(=O)c5ccc([N+](=O)[O-])cc5)cc4)cc3)c(OC(C)C)c2OCC=C)cc1 (centres unmarked)	microbial growth	DSM1116			> 64 µg/mL
COc1ccc(-c2csc(N/N=C(\C)c3ccc4c(c3)sc3nc(=O)c(C#N)cn34)n2)cc1	microbial growth, broth dilution				< 39 µg/mL
CC(=NNC(=N)N)c1nnn(-c2ccc(C#CC3(O)CCCCC3)cc2)c1C	microbial growth, broth dilution	BW25113			> 64 µg/mL
CO[C@H]1[C@H](O)[C@@H](N)[C@@H](O[C@H]2[C@H](O[C@@H]3O[C@H](CO)[C@@H](O[C@H]4O[C@@H](CN)[C@@H](O)[C@H](O)[C@H]4N)[C@H]3O)[C@@H](O)[C@H](N)C[C@@H]2N)O[C@@H]1CO	broth microdilution	clinical isolate AG 003			≥ 128 µg/mL
CN[C@@H]1[C@H](O)[C@H](NC)[C@H]2O[C@]3(O)[C@H](O[C@@H]2[C@H]1O)O[C@H](C)C[C@@]3(O)CNCCc1ccccc1	microbial growth	K12			12.5 µg/mL
COc1ccc2ccc3c(c2c1)C=[N+]1C2CCCCC2[N+]2=Cc4ccc(-c5ccccc5)cc4[O][Au-]21[O]3.F[P-](F)(F)(F)(F)F (centres unmarked)	bacterial growth, broth microdilution	carbapenem-resistant	24 h		> 20 µM
NC[C@@H]1O[C@H](O[C@H]2[C@@H](O)[C@H](O[C@@H]3[C@@H](O)[C@H](N)C[C@H](N)[C@H]3O[C@H]3O[C@H](CO)[C@@H](OCC(O)CO)[C@H](O)[C@H]3N)O[C@@H]2CO)[C@H](N)[C@@H](O)[C@@H]1O (some centres unmarked)	broth microdilution	clinical isolate AG 003			16 µg/mL

Repeated from above:
Structure (SMILES)	assay	test system	conditions	scale	MIC
CC1OCC2OC(OC3C(N)CC(N)C(O)C3OC3OC(CO)C(OC4OC(CN)C(O)C(O)C4N)C3O)C(N)C(O)C2O1 (centres unmarked)	broth microdilution	clinical isolate AG 055			64 µg/mL
CCCCCCCCCCN1C(=O)/C(=N\NC(=N)N)c2cc(C)ccc21	microbial growth, broth dilution		18 h		24 µg/mL
CN1CCC(NCCC2(Cc3ccc(Cl)cc3)CCCCC2)CC1		uropathogenic	10 h		100 µM
CCCCCCCCCc1nc2cc(Cl)ccc2c(=O)n1CCN		MG1655			inactive
NC[C@@H]1O[C@H](O[C@H]2[C@@H](O)[C@H](O[C@@H]3[C@@H](O)[C@H](N)C[C@H](N)[C@H]3O[C@H]3O[C@H](CO)[C@@H](OCCO)[C@H](O)[C@H]3N)O[C@@H]2CO)[C@H](N)[C@@H](O)[C@@H]1O	broth microdilution	clinical isolate AG 001			32 to 64 µg/mL
